Measurements of several laboratories.
pIC50, pKi: −log10 of the molar value.
DRD3: D(3) dopamine receptor (DRD3, Homo sapiens, UniProt P35462)
Sequence of UniProt P35462 (whole entry, looked up): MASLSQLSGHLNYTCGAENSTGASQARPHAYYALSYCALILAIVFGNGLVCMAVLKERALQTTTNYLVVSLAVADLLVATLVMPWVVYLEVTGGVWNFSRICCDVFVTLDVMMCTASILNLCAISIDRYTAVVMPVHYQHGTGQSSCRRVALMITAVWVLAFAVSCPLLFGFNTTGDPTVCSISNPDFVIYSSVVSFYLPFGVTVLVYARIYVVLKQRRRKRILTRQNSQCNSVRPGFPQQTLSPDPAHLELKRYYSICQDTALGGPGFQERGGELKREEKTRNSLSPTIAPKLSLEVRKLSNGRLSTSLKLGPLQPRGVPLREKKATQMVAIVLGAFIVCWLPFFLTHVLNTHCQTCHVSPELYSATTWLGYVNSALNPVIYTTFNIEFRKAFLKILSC
Sequence of UniProt Q9BY41 (whole entry, looked up): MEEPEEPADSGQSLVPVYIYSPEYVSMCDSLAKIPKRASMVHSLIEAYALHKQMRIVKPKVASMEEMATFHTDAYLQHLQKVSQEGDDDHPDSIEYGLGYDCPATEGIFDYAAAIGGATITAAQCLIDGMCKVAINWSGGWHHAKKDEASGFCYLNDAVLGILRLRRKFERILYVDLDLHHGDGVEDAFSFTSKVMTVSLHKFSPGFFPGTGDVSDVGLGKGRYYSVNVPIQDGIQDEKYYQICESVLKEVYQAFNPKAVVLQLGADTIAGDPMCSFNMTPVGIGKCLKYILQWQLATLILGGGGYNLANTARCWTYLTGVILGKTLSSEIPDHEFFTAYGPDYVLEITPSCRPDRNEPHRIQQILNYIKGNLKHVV
Sequence of UniProt Q9UBN7 (whole entry, looked up): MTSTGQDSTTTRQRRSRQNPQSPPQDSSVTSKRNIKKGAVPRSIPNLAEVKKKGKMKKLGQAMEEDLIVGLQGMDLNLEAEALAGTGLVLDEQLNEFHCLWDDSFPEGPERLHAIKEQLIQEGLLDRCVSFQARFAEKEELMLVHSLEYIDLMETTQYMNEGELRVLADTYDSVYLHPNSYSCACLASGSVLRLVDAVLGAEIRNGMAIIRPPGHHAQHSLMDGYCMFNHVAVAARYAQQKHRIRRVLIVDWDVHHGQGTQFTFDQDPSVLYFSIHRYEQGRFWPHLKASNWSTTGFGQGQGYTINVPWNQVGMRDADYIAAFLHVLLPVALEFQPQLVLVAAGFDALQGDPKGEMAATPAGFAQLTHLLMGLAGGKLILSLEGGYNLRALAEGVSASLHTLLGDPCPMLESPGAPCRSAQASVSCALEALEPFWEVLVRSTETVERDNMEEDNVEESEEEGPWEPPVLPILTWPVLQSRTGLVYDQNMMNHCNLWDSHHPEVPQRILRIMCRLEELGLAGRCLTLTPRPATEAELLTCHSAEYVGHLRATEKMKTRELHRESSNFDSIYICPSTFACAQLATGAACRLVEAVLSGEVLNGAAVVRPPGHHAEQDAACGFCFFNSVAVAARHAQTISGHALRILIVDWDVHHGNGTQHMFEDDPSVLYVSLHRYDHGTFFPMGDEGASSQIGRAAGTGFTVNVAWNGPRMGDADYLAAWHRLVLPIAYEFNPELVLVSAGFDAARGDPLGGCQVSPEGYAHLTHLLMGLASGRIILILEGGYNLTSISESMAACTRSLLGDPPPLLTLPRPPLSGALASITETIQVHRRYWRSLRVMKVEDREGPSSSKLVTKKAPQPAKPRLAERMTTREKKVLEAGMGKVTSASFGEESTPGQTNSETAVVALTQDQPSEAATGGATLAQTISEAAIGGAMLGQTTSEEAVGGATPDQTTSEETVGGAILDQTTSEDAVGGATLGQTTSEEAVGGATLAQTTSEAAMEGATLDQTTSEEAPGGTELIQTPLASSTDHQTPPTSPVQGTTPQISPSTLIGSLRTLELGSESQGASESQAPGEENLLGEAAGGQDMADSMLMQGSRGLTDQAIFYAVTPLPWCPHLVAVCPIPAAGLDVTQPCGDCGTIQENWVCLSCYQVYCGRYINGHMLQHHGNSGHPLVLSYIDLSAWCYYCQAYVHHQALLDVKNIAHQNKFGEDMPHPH
Sequence of UniProt O00141 (whole entry, looked up): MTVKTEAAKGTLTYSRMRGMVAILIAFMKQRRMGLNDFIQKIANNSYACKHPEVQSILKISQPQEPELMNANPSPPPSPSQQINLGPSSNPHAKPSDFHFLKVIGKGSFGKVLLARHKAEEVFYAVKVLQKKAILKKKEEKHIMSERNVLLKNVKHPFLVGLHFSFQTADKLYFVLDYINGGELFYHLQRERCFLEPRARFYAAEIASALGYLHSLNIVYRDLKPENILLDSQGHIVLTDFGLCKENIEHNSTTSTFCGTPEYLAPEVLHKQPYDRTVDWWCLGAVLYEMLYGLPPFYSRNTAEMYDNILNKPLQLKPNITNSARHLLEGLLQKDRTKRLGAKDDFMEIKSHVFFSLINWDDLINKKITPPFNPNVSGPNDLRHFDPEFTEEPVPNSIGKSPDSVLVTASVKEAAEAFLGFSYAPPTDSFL
Sequence of UniProt P16591 (whole entry, looked up): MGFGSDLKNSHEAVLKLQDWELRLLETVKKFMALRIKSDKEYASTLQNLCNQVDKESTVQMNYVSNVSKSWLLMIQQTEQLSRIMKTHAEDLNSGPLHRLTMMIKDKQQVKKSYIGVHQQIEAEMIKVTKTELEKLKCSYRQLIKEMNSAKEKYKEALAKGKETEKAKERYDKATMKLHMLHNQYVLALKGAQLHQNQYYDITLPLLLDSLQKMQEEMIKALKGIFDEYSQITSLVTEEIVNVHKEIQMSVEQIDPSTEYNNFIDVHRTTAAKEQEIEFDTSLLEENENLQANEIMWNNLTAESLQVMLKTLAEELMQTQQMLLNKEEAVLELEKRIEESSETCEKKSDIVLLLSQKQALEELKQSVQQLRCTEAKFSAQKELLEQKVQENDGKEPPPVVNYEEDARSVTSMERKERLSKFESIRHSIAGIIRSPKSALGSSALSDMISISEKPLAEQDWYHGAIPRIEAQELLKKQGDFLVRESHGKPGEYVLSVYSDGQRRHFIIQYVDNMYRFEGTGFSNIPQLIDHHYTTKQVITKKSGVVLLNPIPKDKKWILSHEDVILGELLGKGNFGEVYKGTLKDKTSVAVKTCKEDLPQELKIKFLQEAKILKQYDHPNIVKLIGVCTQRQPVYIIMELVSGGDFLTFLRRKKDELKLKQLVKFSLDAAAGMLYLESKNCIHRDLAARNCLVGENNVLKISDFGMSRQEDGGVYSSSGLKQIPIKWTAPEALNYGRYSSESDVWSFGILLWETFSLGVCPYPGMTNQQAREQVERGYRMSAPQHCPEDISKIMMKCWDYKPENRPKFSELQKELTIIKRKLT
Sequence of UniProt O95747 (whole entry, looked up): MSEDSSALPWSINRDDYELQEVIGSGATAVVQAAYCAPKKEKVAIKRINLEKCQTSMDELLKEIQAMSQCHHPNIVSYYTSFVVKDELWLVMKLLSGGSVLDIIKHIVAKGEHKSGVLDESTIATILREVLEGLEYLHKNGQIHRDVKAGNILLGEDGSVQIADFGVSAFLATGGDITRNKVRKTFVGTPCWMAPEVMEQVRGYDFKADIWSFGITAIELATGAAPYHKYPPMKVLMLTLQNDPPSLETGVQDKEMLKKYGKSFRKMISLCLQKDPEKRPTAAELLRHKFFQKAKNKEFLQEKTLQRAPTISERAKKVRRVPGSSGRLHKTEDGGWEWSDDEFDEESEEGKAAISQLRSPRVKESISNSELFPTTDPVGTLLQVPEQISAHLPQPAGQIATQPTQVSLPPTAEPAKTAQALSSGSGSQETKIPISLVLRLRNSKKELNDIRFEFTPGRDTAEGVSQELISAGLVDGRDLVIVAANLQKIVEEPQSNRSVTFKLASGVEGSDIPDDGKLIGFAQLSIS

SMILES	target or system	test	test system	conditions	quantity	result
Cc1[nH]c(C)c(S(=O)(=O)Nc2ccc(I)c(Cl)c2)c1C(=O)N1CCC(F)(F)C1	DRD3	G protein activation, antagonist, BRET	–	–	pIC50	6.04
COc1ccc(CNc2nc(-c3ccc(C(=O)O)cc3)nc3sc4ccccc4c23)cc1Cl	–	–	–	–	logP	7.47
CC(=NNC(=O)c1ccccc1O)c1ccc(Nc2nnc(-c3ccc(Cl)cc3)c3ccccc23)cc1	MCF7	cell growth or viability, MTT	–	0.625 µM	cell death	5.36%
N=C(N)c1ccc(OCCCCCOc2ccc(C(=N)N)cc2)cc1	–	haemolysis	sheep	200 µg/mL, 1 h	haemolysis	4%
N[C@@H](C[18F])C(=O)O	–	–	nude mouse, bone	intravenous, 110 min, tumour-bearing	tracer uptake	17.9 %ID/g
N#C[C@@]12C[C@@H]1[C@@H](n1cnc3c(N[C@@H](C4CCC4)C4CC4)nc(I)nc31)[C@H](O)[C@@H]2O	–	–	male Wistar rat, plasma	oral, 3 mg/kg	MRT(0-t)	1.75 h
Nc1ncn([C@H]2C[C@H](O)[C@@H](CO)O2)c(=O)n1	–	–	female C57BL/6 mouse, plasma	oral, 0.4 mg/kg	AUC(0-t)	70 ng·h/mL
Cc1ccc(S(=O)(=O)n2cc3c4c2C(=O)C(NCc2ccc(Cl)cc2)=CC4=NCC3)cc1	–	–	rat, plasma	intravenous, 5 mg/kg, single dose	AUC(0-t)	1590 ng·h/mL
CNc1ncc2c(/C=C/C(=O)N3CCC(OC)CC3)nn(Cc3cccc(C(F)(F)F)c3)c2n1	Tyrosine-protein kinase Fer (FER, Homo sapiens, UniProt P16591)	enzyme activity, inhibitor, radiometric	–	1 µM	remaining activity	84%
CC[C@@](O)(c1cnc(C(F)(F)F)c(Cl)c1)c1c2cnn(C3CC3)c(=O)c2nn1C	–	metabolic stability	human, hepatocytes	0.5 µM, pH 7.4	hepatocyte CLint	1.3 µL/min/10⁶ cells
Cc1cccc(N(O)N=Nc2ccc(S(=O)(=O)Nc3onc(C)c3C)cc2)c1	–	ABTS scavenging	–	20 µg/mL	inhibition	15.4%
O=C(c1ccc(F)cc1)C1CCN(CCn2c(=O)[nH]c3ccccc3c2=O)CC1	–	metabolic stability, mass spectrometry	human, liver microsomes	45 min	compound remaining	39.8%
CN(c1ccc(F)cc1)c1c(-c2cc(Cl)ccn2)nc2ccccn12	–	metabolic stability	rat, hepatocytes	–	hepatocyte CLint	> 300 µL/min/10⁶ cells
CC(C)[N+](C)(CCOC(=O)C1c2ccccc2Oc2ccccc21)C(C)C	–	metabolic stability	human, plasma	15 min	compound remaining	72.8%
COc1ccc2c(c1)CN(C(=O)CCN1CCC(Cc3ccccc3)CC1)CC[S@@+]2[O-]	–	–	male human, plasma	intravenous, 0.01 mg/kg, healthy volunteers	AUC(0-inf)	46.4 ng·h/mL
CN1CCC(Oc2ccc3c(=O)c4c(F)cc(Cl)cc4[nH]c3c2)CC1	–	metabolic stability	mouse, liver microsomes	1 µM, pH 7.4	microsomal CLint	7.15 µL/min/mg
O=C1CC[C@H](N2Cc3cc(N4CCN(CC5CCN(c6ccc([C@@H]7c8ccc(O)cc8CC[C@@H]7c7ccccc7)cc6)CC5)CC4)ccc3C2=O)C(=O)N1	–	–	female Sprague-Dawley rat, plasma	intravenous, 5 mg/kg, fed	AUC(0-t)	11400 ng·h/mL
c1ccc(-c2nc(NCCn3cnc4ccccc43)c3ccccc3n2)nc1	–	metabolic stability	mouse, liver microsomes	–	microsomal CLint	538 µL/min/mg
CCc1cc(-c2noc(-c3cc(OC)nc(C4CCCC4)c3)n2)cc(C)c1OC[C@@H](O)CO	–	–	Wistar rat, plasma	oral, 10 mg/kg, 6 h, single dose	concentration	869 ng/mL

SMILES	target or system	test	test system	conditions	quantity	result
CCONC(=O)N1CCC[C@H](C(=O)N[C@@H](C)c2nc(-c3ccc(C#N)cc3)cs2)C1	–	metabolic stability	human, liver microsomes	0.5 µM	microsomal CLint	20 µL/min/mg
C=CC(=O)N1CCC(COCC(=O)N2CCN(c3nc(-c4cnc(N)nc4C(F)F)nc(N4CCOC[C@@H]4C)n3)CC2)CC1	Serine/threonine-protein kinase Sgk1 (SGK1, Homo sapiens, UniProt O00141)	binding, competition with immobilised ligand	–	1 µM	remaining binding	91%
Cc1[nH]c(C)c(S(=O)(=O)Nc2cc(Cl)c(Cl)c(Cl)c2)c1C(=O)N1CCC(F)(F)C1	DRD3	G protein activation, antagonist, BRET	–	–	pIC50	5.39
Cn1nc2c(=O)n(C3CC3)ccc2c1[C@](O)(c1cnc(C(F)(F)F)c(Cl)c1)C(F)(F)F	–	metabolic stability	male Sprague-Dawley rat, hepatocytes	0.5 µM, pH 7.4	hepatocyte CLint	0.6 µL/min/10⁶ cells
Cc1ccc2cncc(N3CCc4c(cc(Cn5ccnc5)cc4-c4cn(C)nc4C(F)(F)F)C3=O)c2c1	–	–	male CD-1 mouse, plasma	oral, 10 mg/kg	MRT(0-inf)	1.7 h
c1ccc(-c2nc(N3CCOCC3)c3ccccc3n2)nc1	–	metabolic stability	mouse, liver microsomes	–	microsomal CLint	165 µL/min/mg
COc1ccc([C@@H]2Sc3ccccc3N(CCN(C)C)C(=O)[C@@H]2OC(C)=O)cc1	–	metabolic stability	human, hepatocytes	0.5 µM, pH 7.4	hepatocyte CLint	13.7 µL/min/10⁶ cells
O=C(Nc1ccc(CN2CCOCC2)c(C(F)(F)F)c1)c1ccc(C#Cc2cccc3cnccc23)cn1	–	metabolic stability	mouse, liver microsomes	0 h	compound remaining	100%
CC(=O)CC(c1ccccc1)c1c(O)c2ccccc2oc1=O (stereo not drawn)	–	metabolic stability	human, hepatocytes	0.5 µM, pH 7.4	hepatocyte CLint	1.65 µL/min/10⁶ cells
COc1cc(-c2cncc3c2CN(C)Cc2cc(N4CCNCC4)ccc2-3)cc(OC)c1OC	Serine/threonine-protein kinase OSR1 (OXSR1, Homo sapiens, UniProt O95747)	enzyme activity, inhibitor	–	1 µM	remaining activity	103%
N=C(N)c1ccc(OCCSCCOc2ccc(C(=N)N)cc2)cc1	–	haemolysis	sheep	200 µg/mL, 1 h	haemolysis	0.2%
COc1cc(C(=O)NC2CCN(C)CC2)c(F)cc1Nc1ncc(C(F)(F)F)c(Oc2cccc3c2C(=O)N(C)C3)n1	–	–	human, plasma	oral, 50 mg, multiple doses, once daily, patients	Vd/F	538 L
N=C(N)c1ccccc1OCc1ccccc1COc1ccccc1C(=N)N	–	haemolysis	sheep	200 µg/mL, 1 h	haemolysis	0%
CC(C)(C)c1ccc(OS(=O)(=O)Oc2cc(F)cc(C(=O)NO)c2)cc1	Histone deacetylase 8 (HDAC8, Homo sapiens, UniProt Q9BY41)	enzyme activity, inhibitor, fluorescence	–	–	pIC50	5.02
COc1ccc([C@@H]2CN(C(=O)[C@@H](O)CO)C[C@@]2(C)[C@@H](C)O)cc1OC1CN(c2ccc(C)cn2)C1	–	–	human, plasma	oral, 20 mg, single dose, healthy volunteers	Vd/F	57.1 L
COc1ccc([C@@H](O)c2cc(-c3ncnc4cc(N5CCOCC5)ccc34)c(F)cc2Cl)nn1	–	–	human, plasma	oral, 150 mg, multiple doses, once daily, patients	Cmax	1220 ng/mL
O=C(N1CCCCC1)C12CC(c3ccccc3)(C1)C2	–	metabolic stability	human, liver microsomes	2 µM, 7 min, pH 7.4	compound remaining	93%
Cc1ncsc1-c1ccc(CNC(=O)[C@@H]2C[C@@H](O)CN2C(=O)[C@@H](NC(=O)CCCCCCCCCCNC(=O)O[C@H]2C[C@@H](C)C=C3C=C[C@H](C)[C@H](CC[C@@H]4C[C@@H](O)CC(=O)O4)[C@H]32)C(C)(C)C)cc1	–	–	C57BL/6 mouse, plasma	oral, 60 mg/kg, single dose	MRT(0-inf)	10.2 h
CCn1cnc2c(N3CCC(c4ccccn4)C3)nc(-c3ccccn3)nc21 (stereo not drawn)	–	–	PAMPA	10 µM, 3 h, pH 7.4	Papp	19.2 ×10⁻⁶ cm/s

SMILES	target or system	test	test system	conditions	quantity	result
CC(=NNC(=S)Nc1ccccc1)c1ccc(Nc2nnc(-c3ccc(Cl)cc3)c3ccccc23)cc1	MCF7	cell growth or viability, MTT	–	1.25 µM	cell death	72.5%
CCOC(=O)[C@@]12C[C@@H]1[C@@H](n1ccc3c(NC)nc(C#Cc4ccc(Cl)s4)nc31)[C@H](O)[C@@H]2O	–	–	male Sprague-Dawley rat, plasma	oral, 3 mg/kg	Tmax	0.83 h
O=C(O)C1CCN(c2nc(-c3ccccn3)nc3ccccc23)C1 (stereo not drawn)	–	–	PAMPA	10 µM, 3 h, pH 7.4	Papp	< 0.1 ×10⁻⁶ cm/s
O=C(COc1ccc(Cl)cc1)NC12CC(c3nnc([C@H]4C[C@@H](OC(F)(F)F)C4)o3)(C1)C2	–	–	human, plasma	oral, 200 mg, single dose, fasted, healthy volunteers	AUC	145 µM·h
CCN1CCN(Cc2ccc(NC(=O)c3ccc(C)c(NC(=O)c4cncc(-c5cccs5)c4)c3)cc2C(F)(F)F)CC1	–	–	mouse, plasma	intraperitoneal, 30 mg/kg, single dose	AUC(0-inf)	3180 ng·h/mL
CCn1ccc2c([C@](O)(c3ccc(C(F)(F)F)nc3)C3CC3)n(C)nc2c1=O	–	metabolic stability	male Sprague-Dawley rat, hepatocytes	0.5 µM, pH 7.4	hepatocyte CLint	6.5 µL/min/10⁶ cells
O=C(Nc1ccccc1)C1(C(F)(F)F)CC1	–	–	water	24 h	logP	2.27
C=CC(=O)NC1CCN(c2ncc3ncnc(Nc4ccc(Oc5ccc6c(c5)ncn6C)c(C)c4)c3n2)CC1	–	–	male human, plasma	intravenous, 100 µg, healthy volunteers	Vd	138 L
N#CC1CCN(c2nc(-c3ccccn3)nc3ccccc23)C1 (stereo not drawn)	–	metabolic stability	mouse, liver microsomes	–	microsomal CLint	183 µL/min/mg
O=C(NO)c1cccc(OS(=O)(=O)Oc2ccc3ccccc3c2)c1	Protein deacetylase HDAC6 (HDAC6, Homo sapiens, UniProt Q9UBN7)	enzyme activity, inhibitor, fluorescence	–	–	pKi	7.40
NCc1cc2c(cc1F)C(=O)N(C1CCC(=O)NC1=O)C2 (stereo not drawn)	–	–	male CD-1 mouse, plasma	intravenous, 1 mg/kg, 1 h	concentration	22.2 ng/mL
NCCOCC(=O)N1CCC[C@H](C(=O)NCc2nc(-c3ccc(C(F)(F)F)cc3)cs2)C1	–	metabolic stability	human, liver microsomes	0.5 µM	microsomal CLint	< 3 µL/min/mg
COc1cccc(-c2n[nH]c(SCc3ccccn3)n2)c1OC	–	–	female Sprague-Dawley rat, plasma	intravenous, 1 mg/kg, 1.98 min, single dose	concentration	9840 ng/mL
c1ccc(-c2nc(N3CCN(c4ccccn4)CC3)c3ccccc3n2)nc1	–	metabolic stability	mouse, liver microsomes	–	microsomal CLint	485 µL/min/mg
Cc1cccc(N(O)N=Nc2ccc(S(=O)(=O)Nc3cc(C)on3)cc2)c1	–	ABTS scavenging	–	20 µg/mL	inhibition	37.1%
C#C[C@]1(CO)O[C@@H](n2cnc3c(N)nc(F)nc32)C[C@@H]1O	–	–	monkey, plasma	oral, 10 mg/kg	AUC(0-t)	20.7 µM·h
N=C(N)c1cccc(OCCCCCOc2cccc(C(=N)N)c2)c1	–	haemolysis	sheep	200 µg/mL, 1 h	haemolysis	0.1%
Cn1nc2c(=O)n(C3CC3)cnc2c1[C@](O)(c1cnc(C(F)(F)F)c(Cl)c1)C(F)(F)F	–	metabolic stability	male Sprague-Dawley rat, hepatocytes	0.5 µM, pH 7.4	hepatocyte CLint	0.6 µL/min/10⁶ cells
N#Cc1ccc(-c2csc(CNC(=O)[C@H]3CCCN(C(=O)N4CCCC4)C3)n2)cc1	–	metabolic stability	human, liver microsomes	0.5 µM	microsomal CLint	120 µL/min/mg

Excerpt of the above:
SMILES	target or system	test	test system	conditions	quantity	result
CCN1CCN(Cc2ccc(NC(=O)c3ccc(C)c(NC(=O)c4cncc(-c5cccs5)c4)c3)cc2C(F)(F)F)CC1	–	–	mouse, plasma	intraperitoneal, 30 mg/kg, single dose	AUC(0-inf)	3180 ng·h/mL
CCn1ccc2c([C@](O)(c3ccc(C(F)(F)F)nc3)C3CC3)n(C)nc2c1=O	–	metabolic stability	male Sprague-Dawley rat, hepatocytes	0.5 µM, pH 7.4	hepatocyte CLint	6.5 µL/min/10⁶ cells
O=C(Nc1ccccc1)C1(C(F)(F)F)CC1	–	–	water	24 h	logP	2.27
C=CC(=O)NC1CCN(c2ncc3ncnc(Nc4ccc(Oc5ccc6c(c5)ncn6C)c(C)c4)c3n2)CC1	–	–	male human, plasma	intravenous, 100 µg, healthy volunteers	Vd	138 L
N#CC1CCN(c2nc(-c3ccccn3)nc3ccccc23)C1 (stereo not drawn)	–	metabolic stability	mouse, liver microsomes	–	microsomal CLint	183 µL/min/mg
O=C(NO)c1cccc(OS(=O)(=O)Oc2ccc3ccccc3c2)c1	Protein deacetylase HDAC6 (HDAC6, Homo sapiens, UniProt Q9UBN7)	enzyme activity, inhibitor, fluorescence	–	–	pKi	7.40
